Literature values, collected from citations in different studies.
Each line is one published result; not all experiments were run side by side. Converted amounts (≈) assume the structure as drawn.
Chain of UniProt Q9BVS4 (whole entry, looked up): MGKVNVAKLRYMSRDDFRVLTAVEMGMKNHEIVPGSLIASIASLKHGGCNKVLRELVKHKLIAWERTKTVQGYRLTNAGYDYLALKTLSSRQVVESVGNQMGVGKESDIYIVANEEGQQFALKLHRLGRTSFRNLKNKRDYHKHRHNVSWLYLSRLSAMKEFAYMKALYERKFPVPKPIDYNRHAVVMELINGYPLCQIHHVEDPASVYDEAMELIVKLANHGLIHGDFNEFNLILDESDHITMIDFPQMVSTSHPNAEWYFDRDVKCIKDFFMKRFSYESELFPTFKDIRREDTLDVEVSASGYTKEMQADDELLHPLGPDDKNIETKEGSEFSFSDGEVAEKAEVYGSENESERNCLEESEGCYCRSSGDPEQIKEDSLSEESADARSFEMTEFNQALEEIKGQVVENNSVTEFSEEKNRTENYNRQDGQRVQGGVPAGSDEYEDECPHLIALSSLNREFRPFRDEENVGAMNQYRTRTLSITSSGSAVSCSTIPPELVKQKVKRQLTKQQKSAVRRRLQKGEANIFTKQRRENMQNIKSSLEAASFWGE

Structure (SMILES) | target or system | assay | system | setting | scale | quantity | value
C[Si](C)(C)O[Si](C)(C)C |  |  | dry 1-octanol/air | 25 °C |  | log KOA | 2.98
c1ccc2c(c1)ccc1ccccc12 |  |  |  | experimental mean or OPERA estimate |  | log Kow | 4.46
C[C@]12C[C@H](O)[C@H]3[C@@H](CCC4=CC(=O)CC[C@@]43C)[C@@H]1CC[C@@H]2C(=O)CO |  |  |  |  |  | log KOA | > 5
C[C@@H]1C[C@H]2[C@@H]3CCC4=CC(=O)C=C[C@]4(C)[C@@]3(F)[C@@H](O)C[C@]2(C)[C@@]1(O)C(=O)CO |  | IAM chromatography |  |  |  | log kW IAM | 1.71
C[Si]1(C)O[Si](C)(C)O[Si](C)(C)O[Si](C)(C)O[Si](C)(C)O1 |  |  | 1-octanol/water | 25 °C |  | log KOW | 8.07
C#C[C@]1(O)CC[C@H]2[C@@H]3CCc4cc(O)ccc4[C@H]3CC[C@@]21C |  |  | n-octanol/water |  |  | log Kow | 4.15
c1ccc2c(c1)ccc1c3ccccc3ccc21 |  |  |  | experimental mean |  | log Kow | 5.81
Nc1cc(C(F)(F)F)c(-c2nc(N3CCOCC3)nc(N3CCOCC3)n2)cn1 | Serine/threonine-protein kinase RIO2 (RIOK2, Homo sapiens, UniProt Q9BVS4) | enzyme activity |  | 10 µM | baseline: untreated | remaining activity | 90%
C[Si](C)(C)O[Si](C)(C)O[Si](C)(C)O[Si](C)(C)C |  |  |  | 28 °C |  | log KAW | 2.84
O=C(O)CN1CCNCCN(CC(=O)O)CCNCC1 |  |  | 0.1 M KCl |  |  | log KH2 | 9.75
C[Si](C)(C)O[Si](C)(C)O[Si](C)(C)C |  | HPLC retention correlation | 1-octanol/water | 25 °C |  | log KOW | 4.8
CC1(C)S[C@@H]2[C@H](NC(=O)[C@H](N)c3ccccc3)C(=O)N2[C@H]1C(=O)O | Enterobacter cloacae |  | clinical isolate RKI-No_113/16 |  |  | MIC | > 16 µg/mL
CC(O)C(C)n1ncn(-c2ccc(N3CCN(c4ccc(OCC5COC(Cn6cncn6)(c6ccc(Cl)cc6Cl)O5)cc4)CC3)cc2)c1=O (stereo not shown) |  |  |  |  |  | log P (octanol/water) | 4.47
CNC(C)C1CCC(N)C(OC2C(N)CC(N)C(OC3OCC(C)(O)C(NC)C3O)C2O)O1 (stereo not shown) | Enterobacter cloacae |  | clinical isolate RKI-No_506/15 |  |  | MIC | 2 µg/mL (≈ 4.19 µM)
CC(C)NCC(O)COc1ccc(CC(N)=O)cc1 (stereo not shown) |  |  |  |  |  | log Kow | 0.16
C[Si](C)(C)O[Si](C)(C)O[Si](C)(C)O[Si](C)(C)C |  |  |  |  |  | log Kow | 8.14

For quick reference, copied from above:
Structure (SMILES) | target or system | assay | system | setting | scale | quantity | value
CC(C)NCC(O)COc1ccc(CC(N)=O)cc1 (stereo not shown) |  |  |  |  |  | log Kow | 0.16
